Results of several laboratories.
Protocols differ between the studies behind these lines.
Target: Serine/threonine-protein kinase PLK3 (PLK3, Homo sapiens, UniProt Q9H4B4)
Chain of UniProt Q9H4B4 (whole entry, unmodified, looked up): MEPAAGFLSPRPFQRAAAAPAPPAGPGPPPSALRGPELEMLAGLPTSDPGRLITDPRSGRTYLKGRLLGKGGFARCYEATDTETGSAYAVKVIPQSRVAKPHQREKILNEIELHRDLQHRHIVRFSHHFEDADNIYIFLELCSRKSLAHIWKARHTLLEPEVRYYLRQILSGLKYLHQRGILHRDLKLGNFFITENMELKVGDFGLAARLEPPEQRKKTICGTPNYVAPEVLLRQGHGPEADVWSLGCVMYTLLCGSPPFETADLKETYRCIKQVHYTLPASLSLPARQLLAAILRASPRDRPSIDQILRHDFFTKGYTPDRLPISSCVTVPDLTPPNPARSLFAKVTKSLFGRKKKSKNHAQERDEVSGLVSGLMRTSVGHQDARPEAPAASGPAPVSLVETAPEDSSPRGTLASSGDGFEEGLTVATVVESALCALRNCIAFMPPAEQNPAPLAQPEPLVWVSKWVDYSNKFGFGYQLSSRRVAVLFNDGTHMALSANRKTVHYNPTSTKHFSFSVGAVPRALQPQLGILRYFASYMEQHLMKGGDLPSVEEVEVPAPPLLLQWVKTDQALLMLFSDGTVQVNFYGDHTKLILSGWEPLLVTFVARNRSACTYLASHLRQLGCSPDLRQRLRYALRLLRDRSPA

Compound | test | setting | scale | measurement | value
Nc1ncc2c(n1)-c1c([nH]c3ccc(C4=CCOCC4)cc13)CCC2 | binding, competition with immobilised ligand | 1 µM | – | remaining binding | 96%
Cc1nc2c(F)cc(-c3nc(Nc4ccc(CNC(=O)CCCCCCC(=O)NO)cc4)ncc3F)cc2n1C(C)C | enzyme activity, inhibitor | 1 µM | – | inhibition | 56%
COc1ccc(NC(=O)Nc2ccc3c(c2)C(=O)N(C(C)CO)CC(C)C(CN(C)Cc2ccc4c(c2)OCO4)O3)cc1 (stereo not shown) | binding, competition with immobilised ligand | 10 µM | – | remaining binding | 48%
COc1c(OCCCN2CCOCC2)ccc2c1N=C(NC(=O)c1cnc(N)nc1)N1CCN=C21 | kinase activity, inhibitor | 1 µM | reference: untreated control | remaining activity | 91%
CN1CCN(Cc2ccc(-c3ccc(CO[C@H]4CCC[C@@H]4NC(=O)c4cc(-c5cnn(C)c5)cnc4N)cc3)cc2)CC1 | enzyme activity, inhibitor | 0.1 µM | – | inhibition | -2%
CNC(=O)C1CCN(c2cc(C)c(F)cc2NC(=O)c2ccc(-c3cc(O)ccc3C)c(C)c2)CC1 | binding, competition with immobilised ligand | 1 µM | – | remaining binding | 85%
C=CC(=O)Nc1cccc(-c2cnc3[nH]cc(C(=O)NC(C)(C)C)c3n2)c1 | kinase activity | 0.1 µM | – | inhibition | 14%
C=CC(=O)N1CCc2ccc(-n3c(=O)ccc4cnc5ccc(-c6cnn(C)c6)cc5c43)cc21 | KINOMEscan | 1 µM | reference: DMSO control | remaining binding | 100%
CN1CCN(Cc2ccc(NC(=O)c3cccc(C#Cc4cnc(N)c5ncccc45)c3)cc2C(F)(F)F)CC1 | cell-free assay, competition with immobilised ligand | 50 nM | – | remaining binding | 81%
CCn1cc(C(=O)O)c(=O)c2c(N)c(F)c(NC3CCCCC3)cc21 | kinase activity | 0.1 µM, together with: ATP at Km | – | inhibition | -13.3%
COc1cc(Nc2nc(C)cc(-c3cnn4nc(OC)ccc34)n2)cc(C(F)(F)F)c1 | inhibitor | 1 µM | reference: control | remaining activity | 72%
Cc1ccc(-c2c(/C=C(\C#N)C(=O)NC(C)C)n(CCCO)c3ncnc(N)c23)cc1 | cell-free assay, competition with immobilised ligand | 1 µM | – | remaining binding | 86%
CNC1C[S+]2CC[S+]3CC[S+](C1)[Ru-4]321([N]=C=S)[n]2c3ccc(OC)cc3c3c4c(c5cc(F)c[n+]1c5c32)C(=O)NC4=O (stereo not shown) | KinomeScan | 0.1 µM | reference: untreated | remaining binding | 58%

For quick reference, copied from above:
Compound | test | setting | scale | measurement | value
C=CC(=O)N1CCc2ccc(-n3c(=O)ccc4cnc5ccc(-c6cnn(C)c6)cc5c43)cc21 | KINOMEscan | 1 µM | reference: DMSO control | remaining binding | 100%
CN1CCN(Cc2ccc(NC(=O)c3cccc(C#Cc4cnc(N)c5ncccc45)c3)cc2C(F)(F)F)CC1 | cell-free assay, competition with immobilised ligand | 50 nM | – | remaining binding | 81%
